Measured values pooled from the literature.
Lines come from different studies, so protocols differ.
Cell line: NCI-H460

CC(=C(c1ccc(O)cc1)c1ccc(Cl)cc1)c1ccc(Cl)cc1  GI50 (cell growth or viability, SRB): 0.48 µM
COc1cc(CNC(=O)C[C@H](C)CCC=C(C)C)ccc1OCc1cn(-c2cccc(Cl)c2)nn1  growth percent (SRB; 10 µM, 48 h): 88.7%
CC1=C(C2=C(C)C(=O)c3c(cc(O)c(O)c3C(C)C)C2=O)C(=O)c2cc(O)c(O)c(C(C)C)c2C1=O (racemic)  EC50 (cell growth or viability, ATP luminescence; 72 h): 0.71 µM
COc1cc(CNC(=O)C[C@H](C)CCC=C(C)C)ccc1OCc1cn(-c2ccc([N+](=O)[O-])cc2)nn1  growth percent (SRB; 10 µM, 48 h): 78.2%
COc1ccc(C2=Nn3c(NN=C4C(=O)N(Cc5ccccc5)c5ccc(Cl)cc54)nnc3SC2)cc1  inhibition (cell growth or viability, SRB; 10 µM): 51%
COc1cc(CNC(=O)C[C@H](C)CCC=C(C)C)ccc1OCc1cn(-c2ccc(Cl)c(Cl)c2)nn1  growth percent (SRB; 10 µM, 48 h): 45.5%
CCCC(C)NC(=O)C(Nc1ccccc1C(=O)c1ccccc1)c1cn(C)c2ccccc12 (centres unmarked)  GI50 (cell growth or viability, MTT; 72 h): 12 µM
COc1cc(CNC(=O)C[C@H](C)CCC=C(C)C)ccc1OCc1cn(-c2ccccc2F)nn1  growth percent (SRB; 10 µM, 48 h): 89%
CC(=O)O[C@@H]1CC[C@@]2(C)[C@@H](CC[C@]3(C)[C@@H]2C(=O)C=C2[C@@H]4[C@@H](C)[C@H](C)CC[C@]4(C)CC[C@]23C)[C@@]1(C)C(=O)NCCNC(=O)CC[P+](c1ccccc1)(c1ccccc1)c1ccccc1  IC50 (cell growth or viability, MTT; 48 h): 25.5 µM
CC(C)C1=C(O)C(=O)C2=C(C1=O)[C@H](OC=O)[C@@H](O)[C@H]1C(C)(C)CCC[C@]21C  GI50 (cell growth or viability, MTT; 72 h): 14.9 µM
CC(=O)OC[C@H]1O[C@@H](Sc2sc(C(=O)c3ccc(C)cc3)c(N)c2-c2nc3ccccc3s2)[C@H](OC(C)=O)[C@@H](OC(C)=O)[C@H]1OC(C)=O  growth (SRB; 10 µM, 48 h; reference: untreated): 108%
CC(=O)O[C@@H]1CC[C@@]2(C)[C@@H](CC[C@]3(C)[C@@H]2C(=O)C=C2[C@@H]4[C@@H](C)[C@H](C)CC[C@]4(C)CC[C@]23C)[C@@]1(C)C(=O)NCCNC(=O)CCCCCCCCCC[P+](c1ccccc1)(c1ccccc1)c1ccccc1  IC50 (cell growth or viability, MTT; 48 h): 2.31 µM
CCC1=C(CC)C2=[N+]3C1=Cc1c(CC)c(CC)c4[n]1[Ir-3]31([C]#[N+]c3ccc(OC)cc3)([C]#[N+]c3ccc(OC)cc3)[n]3c(c(CC)c(CC)c3=CC3=[N+]1C(=C4)C(CC)=C3CC)=C2.F[B-](F)(F)F  phototoxicity index (reference: IC50 dark over IC50 light): 24.2
CC(=O)OC[C@H]1O[C@@H](Sc2sc(C(=O)c3ccc(Br)cc3)c(N)c2-c2nc3ccccc3s2)[C@H](OC(C)=O)[C@@H](OC(C)=O)[C@H]1OC(C)=O  growth (SRB; 10 µM, 48 h; reference: untreated): 107%
CC/C=C\C/C=C\C/C=C\C/C=C\C/C=C\C/C=C\CCC(=O)Nc1ccn(C2OC(CO)C(O)C2(F)F)c(=O)n1 (centres unmarked)  TGI (NCI60 screen): 11.8 µM
COc1cc(CNC(=O)C[C@H](C)CCC=C(C)C)ccc1OCc1cn(-c2ccccc2[N+](=O)[O-])nn1  growth percent (SRB; 10 µM, 48 h): 84.2%
Cc1ccc(S(=O)(=O)Nc2ccc(O)c3ccccc23)c(C)c1  cell growth (5 µM, 4 days): no effect

Repeated from above:
CC(=O)OC[C@H]1O[C@@H](Sc2sc(C(=O)c3ccc(C)cc3)c(N)c2-c2nc3ccccc3s2)[C@H](OC(C)=O)[C@@H](OC(C)=O)[C@H]1OC(C)=O  growth (SRB; 10 µM, 48 h; reference: untreated): 108%
